Measured values collected from several papers.
Parts stem from different laboratories: compare values within a part only. Substitutions count along the parent as printed.

Series 1
Target: Histone acetyltransferase KAT6A, winged helix 1, GST fusion (KAT6A, Homo sapiens, UniProt Q92794, residues 1-85)
Method: protein binding microarray
Form: double-stranded DNA, one strand shown
Medium: in vitro
Concentration: not given
Setting: 8-mer, flanks averaged, mean of 2 arrays, mostly near background
Reference: not given
Direction: higher = stronger binding
Residues (chain): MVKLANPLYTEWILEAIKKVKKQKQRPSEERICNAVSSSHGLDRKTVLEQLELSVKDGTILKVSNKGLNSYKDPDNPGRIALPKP
Sequence | E-score
CGTCCACA | -0.0563
GCTTATCC | 0.0183
ACCCGCCA | 0.212
AGGGAACC | -0.0145
CCTCGGAA | 0.0284
ACACCGGT | 0.152
AGTGGGCG | -0.069
ATTAGAAT | -0.291
CTTCGTTC | -0.23
CTGGTAAG | -0.204
CAGCGACC | 0.13
ACTGTTAA | 0.0551
TGTAGACA | -0.198
AAATTTTA | -0.217
GATACTAA | -0.0269
AACCGCTC | 0.155
GCTAGTCA | -0.0704
AACACAGG | -0.241
TTAGCCAA | -0.111
AACTATAG | -0.0901
GCCGGTAA | 0.376
GGCCTCCA | -0.0299
ACTTCACT | -0.189
ATCCGCTG | 0.0953
AAGCGAGA | 0.0688

Series 2
Target: Sal-like protein 4, full length isoform B (SALL4, Homo sapiens, UniProt Q9UJQ4-2, residues 1-616)
Method: universal PBM
Form: double-stranded DNA, one strand shown
Medium: in vitro
Concentration: not given
Setting: 8-mer, flanks averaged, mean of replicates
Direction: higher = stronger binding
Sequence | E-score
TCGAGAAA | 0.0934
GGCAACAA | 0.11
TCAGAAAA | 0.179
GTCGAGAA | 0.037
GACTGTTA | 0.0731
AGCTTACA | 0.23
ACAATTAC | 0.319
GTAGTTCA | 0.0501
GGGAGCTA | -0.26
ATTGGAAC | 0.179
GCGGGGCA | -0.283
GATCTCGA | -0.204
CGCTAGTA | 0.054
ATTGACCG | 0.00509
GTCAGAGA | -0.0526
GAGCAATA | 0.207
ATTTTTAC | 0.386
ACGTTCCG | -0.233
GTGGACCA | -0.121
CCAGGGGA | -0.238
CTGCCAGA | -0.21
CGCTAGCC | -0.255
CGGCCACA | -0.216
TCCACCCA | -0.0974
ATTGGCTG | -0.0764

Series 3
Target: Protein C-ets-1 (ETS1, Homo sapiens, UniProt P14921, residues 1-441, full length assumed)
Method: protein-binding microarray
Form: double-stranded DNA, one strand shown
Medium: in vitro
Concentration: not given
Setting: k-mer, scored over probes, only values ≥0.25
Direction: higher = stronger binding
Residues (chain): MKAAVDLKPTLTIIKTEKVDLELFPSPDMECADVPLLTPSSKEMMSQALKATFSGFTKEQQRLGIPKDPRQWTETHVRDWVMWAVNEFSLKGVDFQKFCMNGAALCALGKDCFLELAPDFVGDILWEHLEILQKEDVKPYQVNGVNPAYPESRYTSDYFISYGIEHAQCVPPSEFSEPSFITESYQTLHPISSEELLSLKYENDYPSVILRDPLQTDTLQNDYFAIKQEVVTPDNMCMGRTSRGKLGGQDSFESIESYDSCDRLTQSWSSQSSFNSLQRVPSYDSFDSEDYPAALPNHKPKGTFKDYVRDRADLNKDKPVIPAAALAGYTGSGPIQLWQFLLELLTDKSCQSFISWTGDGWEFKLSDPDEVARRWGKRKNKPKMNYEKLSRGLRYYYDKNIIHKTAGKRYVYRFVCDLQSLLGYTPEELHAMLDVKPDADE
Sequence | E-score
AGCCGGGA | 0.258
CATGCGGA | 0.261
TACCGGTA | 0.353
TGAAGGAA | 0.284
CAATCGGA | 0.289
ACGGAAGC | 0.447
AACGGACG | 0.296
GGACGGAC | 0.268
ACCGGACG | 0.477
CACATCCA | 0.288
ACGGAAAC | 0.461
GTAGGACA | 0.253
AAGCCGGA | 0.421
AACCGGAT | 0.479

Series 4
Target: Interferon regulatory factor 5, full length, phosphomimetic (IRF5, Homo sapiens, UniProt Q13568-2, residues 1-514, K96S/S451D/S453D/S456D/S462D)
Method: protein-binding microarray
Form: double-stranded DNA, one strand shown
Medium: in vitro
Concentration: 250 nM
Setting: 60-bp whole probe
Added: salmon DNA 0.4 mg/ml
Reference: random background probes
Direction: higher = stronger binding
All sequences stand within: GCCTAGCAC … GTCTTGATTCGCTTGACGCTGCTG
Sequence | log fluorescence
TTAGGTATCGGGACTGGTTTAGTGCTA | 1.82 z-score
TTAGGTTTCGACACTGGGTTTGTGCTA | 5.84 z-score
TTAGGTATAGGACTGGGTTAGTGCTAG | -0.218 z-score
TTAGTACTGGGTCTCGGTTAGTGCTAG | 0.045 z-score
GACGAACTGAGTATCGAGATGTGCTAG | 1.97 z-score
GAAGAACTGGGGACTGGAGACGTGCTA | -0.613 z-score
TTAGGTATCGGTATCGTTTAGTGCTAG | 8.2 z-score
GACGGTTTCGGTGTCGGGACGTGCTAG | 8.78 z-score
GACGGACCGGGTATCGGGACGTGCTAG | 0.0851 z-score
TCATTTTTGTAATCGAAAACTGTGCTA | 2.3 z-score
TTAGATCTCAGATTGGATTAGTGCTAG | 0.0105 z-score
TTAGGTTTCCTTATCCTTAAGTGCTAG | 1.16 z-score
CTGGGCAGGATGAGTTCCAGGTGCTAG | -0.446 z-score
TTAGATTTCAGGATCGATTAGTGCTAG | 1.3 z-score
GAGGGACTGGGGACTGGGGACGTGCTA | -0.904 z-score
TTAGGACTGGGTCTCGCTTAGTGCTAG | -0.641 z-score
GACGGTATCGACTTTCGGCACGTGCTA | 6.91 z-score

Series 5
Target: BATF3, bZIP domain (human)
Method: DHFR protein complementation
Medium: yeast
Setting: single substitutions, most at no-binding floor
Reference: wild-type JUN-FOS pair
Direction: higher = stronger binding
Starting sequence: JUN, bZIP domain (human); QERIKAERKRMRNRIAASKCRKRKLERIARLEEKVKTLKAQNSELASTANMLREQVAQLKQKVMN; partner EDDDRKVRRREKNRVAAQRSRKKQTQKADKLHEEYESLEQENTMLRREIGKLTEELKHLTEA
Change | binding fitness [natural log]
A49S | 0.0631
L52G | -1.19
L45H | -0.118
N42T | -0.115
A29G | 0.174
M51Q | 0.225
K39Q | 0.125
K34R | 0.274
T37P | -0.326
K36E | 0.195
K39I | 0.105
E32G | 0.12
V35H | -0.195
A46R | 0.2
L38R | 0.0488
V56E | -0.388
A40F | 0.223

Series 6
Target: human cyclin A2
Observed: peptide binding
Method: competitive growth sequencing
Form: peptide
Organism: Saccharomyces cerevisiae
Strain: cyclin A2-Cln2 fusion strain
Concentration: concentration not given
Setting: mutational scanning library 2
Reference: unfused Cln2 strain
Direction: direction not given
Molecule | binding score
LLRRLQDVANDRG | 1.11
PSSMRKICTYFHR | 1.92
LLKRLQDVVSERA | 1.45

Series 7
Target: ABI1, truncated, D143A, DHFR fusion (Arabidopsis thaliana)
Method: DHFR PCA, deep sequencing
Medium: yeast
Setting: methotrexate growth selection, single substitutions
Added: (+)-ABA 0.032 µM
Reference: wild-type fitted maximum
Direction: higher = stronger binding
Starting sequence: PYL1, truncated, DHFR fusion (Arabidopsis thaliana); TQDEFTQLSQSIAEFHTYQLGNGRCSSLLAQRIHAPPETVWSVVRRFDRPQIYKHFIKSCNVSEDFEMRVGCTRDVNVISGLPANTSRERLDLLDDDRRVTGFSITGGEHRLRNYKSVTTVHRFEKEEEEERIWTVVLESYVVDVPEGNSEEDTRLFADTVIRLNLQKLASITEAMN
Change | relative binding score [%]
E89T | 0.161
S26F | -7.96
T39G | 0.296
E64I | 6.62
T17A | -2.03
R49H | 4.94
N177K | 23.9
L82M | 33.8
Q167D | 1.04
W41Y | -16.1
V121D | 3.64
L166T | 0.202
S42I | -6.25
P146V | 27.2
L29T | 0.674
I57V | 13.8
A35D | 10.2
I12M | 6.28
V137K | 0.995
C25V | 53.7
F47D | -0.477
E174M | -5.54

Single results of other studies
Substance | target | assay | system | conditions | how to read | quantity | result
PhoQ, residues 284 288 289 292 302 303 SLGVVW | PhoP, residues 12 14 15 18 19 NFCKL (Escherichia coli, UniProt P23836) | Sort-seq, measured: YFP reporter | E. coli | PhoQ-PhoP variant library, added: 10 µM Mg2+ | reference: high Mg2+ state, higher = stronger signaling | fold induction | 15.9

Some of these lines once more (series 4):
Sequence | log fluorescence
TCATTTTTGTAATCGAAAACTGTGCTA | 2.3 z-score
GACGGTATCGACTTTCGGCACGTGCTA | 6.91 z-score
TTAGGTATCGGGACTGGTTTAGTGCTA | 1.82 z-score
GACGGTTTCGGTGTCGGGACGTGCTAG | 8.78 z-score
TTAGGTTTCCTTATCCTTAAGTGCTAG | 1.16 z-score
TTAGGTATAGGACTGGGTTAGTGCTAG | -0.218 z-score
GAAGAACTGGGGACTGGAGACGTGCTA | -0.613 z-score
TTAGGTATCGGTATCGTTTAGTGCTAG | 8.2 z-score
TTAGGACTGGGTCTCGCTTAGTGCTAG | -0.641 z-score
GAGGGACTGGGGACTGGGGACGTGCTA | -0.904 z-score
